Published values pooled from the literature.
Every numbered part comes from another study and shows a few of its results, in no order.

Block 1 — technique: protein-binding microarray; molecule type: double-stranded DNA, one strand shown; sample: in vitro; concentration: 250 nM; notes: 60-bp whole probe; added: salmon DNA 0.4 mg/ml; baseline: random background probes; direction: higher = stronger binding; all sequences stand within: GCCTAGCAC … GTCTTGATTCGCTTGACGCTGCTG
Target: Interferon regulatory factor 7, full length, phosphomimetic (IRF7, Homo sapiens, UniProt Q92985, residues 1-503, S101K/S471D/S472D/S475D/S476D/S477D/S483D/S484D/S487D)
UniProt Q92985, sequence (whole entry, unmodified, looked up): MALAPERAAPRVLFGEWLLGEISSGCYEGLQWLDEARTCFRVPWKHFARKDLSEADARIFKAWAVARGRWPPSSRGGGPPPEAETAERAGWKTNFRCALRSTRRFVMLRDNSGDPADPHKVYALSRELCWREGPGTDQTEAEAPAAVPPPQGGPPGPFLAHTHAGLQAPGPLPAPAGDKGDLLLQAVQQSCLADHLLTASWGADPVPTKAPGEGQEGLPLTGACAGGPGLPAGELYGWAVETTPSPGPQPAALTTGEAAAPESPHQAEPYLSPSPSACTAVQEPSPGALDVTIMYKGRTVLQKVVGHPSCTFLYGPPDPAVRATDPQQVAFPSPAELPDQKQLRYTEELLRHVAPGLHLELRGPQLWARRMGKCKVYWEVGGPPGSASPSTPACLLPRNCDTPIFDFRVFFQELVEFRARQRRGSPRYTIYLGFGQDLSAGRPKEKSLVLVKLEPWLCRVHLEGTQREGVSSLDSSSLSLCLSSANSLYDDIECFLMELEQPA
| Oligonucleotide | log fluorescence [z-score] |
| --- | --- |
| TTAGGTTGCCTTTTCCTTTAGTGCTAG | 0.794 |
| GACGGTCTCCTTTTCCAGACGTGCTAG | 1.27 |
| AACTGCATCCCAGGAGCTGGGTGCTAG | 0.0615 |
| TTAGATTTCGGGTATCGATTAGTGCTA | 1.47 |
| TCACCTCTCTCTATTCAACTGTGCTAG | 0.861 |
| TTAGGGCTGGACTATCGGTTAGTGCTA | -0.902 |
| GGCAGGAATAAAGGAGCAGCGTGCTAG | -0.692 |

Block 2 — technique: RNAcompete; molecule type: RNA; sample: in vitro; concentration: 20 nM; notes: 7-mer, probes averaged, single round; baseline: mean of 7-mers; direction: higher = stronger binding
Target: PABPC1L2, full length, GST fusion (mouse, UniProt A0ABA7IW68)
Target sequence (chain): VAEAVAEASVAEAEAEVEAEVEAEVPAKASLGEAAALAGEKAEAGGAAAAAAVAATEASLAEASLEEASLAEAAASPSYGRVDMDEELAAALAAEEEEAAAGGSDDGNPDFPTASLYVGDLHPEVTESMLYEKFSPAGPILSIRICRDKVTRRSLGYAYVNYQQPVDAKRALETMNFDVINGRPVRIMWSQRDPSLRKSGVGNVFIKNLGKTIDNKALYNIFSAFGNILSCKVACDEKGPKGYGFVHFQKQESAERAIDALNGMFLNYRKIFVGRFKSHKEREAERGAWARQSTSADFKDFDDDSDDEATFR
| Oligonucleotide | 7-mer Z-score |
| --- | --- |
| CGCCUCC | -0.4 |
| UUCUAGG | -0.242 |
| GCGGACG | 0.0587 |
| GACAUCG | -0.231 |
| GUGUGGU | -0.079 |
| UACCUGA | -0.233 |
| UGUUACC | -0.325 |

Block 3 — technique: protein binding microarray; molecule type: double-stranded DNA, one strand shown; sample: in vitro; concentration: not given; baseline: not given; direction: higher = stronger binding
Target: Histone acetyltransferase KAT6A, winged helix 2, GST fusion (KAT6A, Homo sapiens, UniProt Q92794, residues 85-181)
Notes: 8-mer, flanks averaged, mean of 2 arrays, mostly near background
Target sequence (chain): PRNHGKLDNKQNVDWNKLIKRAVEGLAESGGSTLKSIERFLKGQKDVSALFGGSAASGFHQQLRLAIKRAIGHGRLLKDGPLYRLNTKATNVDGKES
| Oligonucleotide | E-score |
| --- | --- |
| CTCGTAAG | 0.0625 |
| ATAGCCAA | 0.0928 |
| CCTCAATC | 0.173 |
| CCCGCCTC | 0.116 |
| CAGAATAA | 0.0149 |
| CTGATCGA | -0.00536 |

Single results of other studies
| Molecule | target | test | test system | conditions | how to read | quantity | value |
| --- | --- | --- | --- | --- | --- | --- | --- |
| PhoQ, residues 284 288 289 292 302 303 TYGVAM | PhoP, residues 12 14 15 18 19 NHFIF (Escherichia coli, UniProt P23836) | Sort-seq, refers to: YFP reporter | E. coli | PhoQ-PhoP variant library, added: 10 µM Mg2+ | baseline: high Mg2+ state, higher = stronger signaling | fold induction | 20.8 |

Excerpt of the above (block 3):
| Oligonucleotide | E-score |
| --- | --- |
| CTGATCGA | -0.00536 |
| CAGAATAA | 0.0149 |
